Assay results of several laboratories.
Lines come from different studies, so protocols differ. Several values in a cell are separate wells, animals, samples, runs or records. ± gives the spread as reported.
NR1H3: Oxysterols receptor LXR-alpha (NR1H3, Homo sapiens, UniProt Q13133)
Sequence of UniProt Q13133 (whole entry, looked up): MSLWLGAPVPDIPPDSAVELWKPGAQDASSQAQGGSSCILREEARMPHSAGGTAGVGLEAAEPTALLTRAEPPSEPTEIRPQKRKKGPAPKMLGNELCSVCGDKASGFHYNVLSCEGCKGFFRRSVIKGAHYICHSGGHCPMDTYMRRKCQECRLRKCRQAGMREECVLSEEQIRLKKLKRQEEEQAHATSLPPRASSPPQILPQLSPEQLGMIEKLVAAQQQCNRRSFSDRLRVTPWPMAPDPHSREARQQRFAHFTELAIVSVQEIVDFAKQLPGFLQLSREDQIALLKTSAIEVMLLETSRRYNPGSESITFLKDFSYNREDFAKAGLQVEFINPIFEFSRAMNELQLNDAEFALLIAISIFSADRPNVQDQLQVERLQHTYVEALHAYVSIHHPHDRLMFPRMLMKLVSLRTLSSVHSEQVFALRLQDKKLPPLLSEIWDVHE
T1: DNA aptamer; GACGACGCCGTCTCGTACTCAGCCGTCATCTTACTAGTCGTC
Sequence of UniProt Q16774 (whole entry, looked up): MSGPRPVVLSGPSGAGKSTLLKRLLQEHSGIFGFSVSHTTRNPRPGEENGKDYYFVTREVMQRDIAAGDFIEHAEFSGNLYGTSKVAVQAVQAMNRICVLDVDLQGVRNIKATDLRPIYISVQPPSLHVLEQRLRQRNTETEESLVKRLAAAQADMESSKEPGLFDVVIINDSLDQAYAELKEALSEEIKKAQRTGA
Sequence of UniProt P51575 (whole entry, unmodified, looked up): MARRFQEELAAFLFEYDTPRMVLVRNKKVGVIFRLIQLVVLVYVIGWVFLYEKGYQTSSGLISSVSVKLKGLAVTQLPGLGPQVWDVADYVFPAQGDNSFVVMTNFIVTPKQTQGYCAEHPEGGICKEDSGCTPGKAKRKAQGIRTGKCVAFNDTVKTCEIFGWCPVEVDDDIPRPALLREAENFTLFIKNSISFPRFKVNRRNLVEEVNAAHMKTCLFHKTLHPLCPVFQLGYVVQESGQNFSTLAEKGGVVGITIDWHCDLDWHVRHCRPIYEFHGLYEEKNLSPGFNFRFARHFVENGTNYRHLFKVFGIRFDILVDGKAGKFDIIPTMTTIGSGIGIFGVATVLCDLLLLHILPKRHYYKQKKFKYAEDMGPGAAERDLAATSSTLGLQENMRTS
Sequence of UniProt P50613 (whole entry, looked up): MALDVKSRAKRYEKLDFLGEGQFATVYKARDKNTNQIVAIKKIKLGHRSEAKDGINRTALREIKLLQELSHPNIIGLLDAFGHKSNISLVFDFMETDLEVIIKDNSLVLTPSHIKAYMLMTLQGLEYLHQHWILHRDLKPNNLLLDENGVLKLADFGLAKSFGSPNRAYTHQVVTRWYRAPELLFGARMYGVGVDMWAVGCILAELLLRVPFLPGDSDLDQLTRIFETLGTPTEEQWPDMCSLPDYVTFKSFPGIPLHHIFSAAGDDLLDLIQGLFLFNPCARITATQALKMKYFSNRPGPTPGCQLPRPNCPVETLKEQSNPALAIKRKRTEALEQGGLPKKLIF
Sequence of UniProt Q9H7Z7 (whole entry, looked up): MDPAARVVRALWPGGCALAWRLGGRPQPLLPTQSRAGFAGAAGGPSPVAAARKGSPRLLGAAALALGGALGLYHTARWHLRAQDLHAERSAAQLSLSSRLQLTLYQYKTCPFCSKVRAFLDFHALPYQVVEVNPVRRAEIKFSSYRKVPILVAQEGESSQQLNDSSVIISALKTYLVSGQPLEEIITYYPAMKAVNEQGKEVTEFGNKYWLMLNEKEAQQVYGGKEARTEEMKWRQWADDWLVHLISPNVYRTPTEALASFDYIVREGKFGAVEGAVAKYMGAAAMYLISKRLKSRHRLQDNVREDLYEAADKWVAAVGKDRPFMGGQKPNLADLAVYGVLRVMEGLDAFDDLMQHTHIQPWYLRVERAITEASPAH
Sequence of UniProt Q01105 (whole entry, unmodified, looked up): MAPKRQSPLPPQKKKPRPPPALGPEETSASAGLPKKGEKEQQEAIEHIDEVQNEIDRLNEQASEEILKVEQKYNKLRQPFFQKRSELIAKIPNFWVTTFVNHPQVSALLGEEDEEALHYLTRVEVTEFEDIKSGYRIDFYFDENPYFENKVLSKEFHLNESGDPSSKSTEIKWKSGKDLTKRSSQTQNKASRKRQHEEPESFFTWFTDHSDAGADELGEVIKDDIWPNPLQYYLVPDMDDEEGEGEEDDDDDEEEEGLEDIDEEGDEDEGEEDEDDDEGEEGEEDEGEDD
Sequence of UniProt P25090 (whole entry, looked up): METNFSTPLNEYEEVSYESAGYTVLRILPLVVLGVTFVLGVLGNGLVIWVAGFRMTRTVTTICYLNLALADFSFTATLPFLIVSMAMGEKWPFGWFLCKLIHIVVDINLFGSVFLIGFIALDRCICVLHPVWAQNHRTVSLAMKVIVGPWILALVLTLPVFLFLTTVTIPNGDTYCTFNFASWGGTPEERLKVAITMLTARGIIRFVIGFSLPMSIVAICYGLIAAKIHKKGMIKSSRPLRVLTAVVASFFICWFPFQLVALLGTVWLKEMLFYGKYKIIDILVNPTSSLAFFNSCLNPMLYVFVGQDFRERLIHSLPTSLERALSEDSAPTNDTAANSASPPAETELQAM
Sequence of UniProt Q12791 (whole entry, looked up): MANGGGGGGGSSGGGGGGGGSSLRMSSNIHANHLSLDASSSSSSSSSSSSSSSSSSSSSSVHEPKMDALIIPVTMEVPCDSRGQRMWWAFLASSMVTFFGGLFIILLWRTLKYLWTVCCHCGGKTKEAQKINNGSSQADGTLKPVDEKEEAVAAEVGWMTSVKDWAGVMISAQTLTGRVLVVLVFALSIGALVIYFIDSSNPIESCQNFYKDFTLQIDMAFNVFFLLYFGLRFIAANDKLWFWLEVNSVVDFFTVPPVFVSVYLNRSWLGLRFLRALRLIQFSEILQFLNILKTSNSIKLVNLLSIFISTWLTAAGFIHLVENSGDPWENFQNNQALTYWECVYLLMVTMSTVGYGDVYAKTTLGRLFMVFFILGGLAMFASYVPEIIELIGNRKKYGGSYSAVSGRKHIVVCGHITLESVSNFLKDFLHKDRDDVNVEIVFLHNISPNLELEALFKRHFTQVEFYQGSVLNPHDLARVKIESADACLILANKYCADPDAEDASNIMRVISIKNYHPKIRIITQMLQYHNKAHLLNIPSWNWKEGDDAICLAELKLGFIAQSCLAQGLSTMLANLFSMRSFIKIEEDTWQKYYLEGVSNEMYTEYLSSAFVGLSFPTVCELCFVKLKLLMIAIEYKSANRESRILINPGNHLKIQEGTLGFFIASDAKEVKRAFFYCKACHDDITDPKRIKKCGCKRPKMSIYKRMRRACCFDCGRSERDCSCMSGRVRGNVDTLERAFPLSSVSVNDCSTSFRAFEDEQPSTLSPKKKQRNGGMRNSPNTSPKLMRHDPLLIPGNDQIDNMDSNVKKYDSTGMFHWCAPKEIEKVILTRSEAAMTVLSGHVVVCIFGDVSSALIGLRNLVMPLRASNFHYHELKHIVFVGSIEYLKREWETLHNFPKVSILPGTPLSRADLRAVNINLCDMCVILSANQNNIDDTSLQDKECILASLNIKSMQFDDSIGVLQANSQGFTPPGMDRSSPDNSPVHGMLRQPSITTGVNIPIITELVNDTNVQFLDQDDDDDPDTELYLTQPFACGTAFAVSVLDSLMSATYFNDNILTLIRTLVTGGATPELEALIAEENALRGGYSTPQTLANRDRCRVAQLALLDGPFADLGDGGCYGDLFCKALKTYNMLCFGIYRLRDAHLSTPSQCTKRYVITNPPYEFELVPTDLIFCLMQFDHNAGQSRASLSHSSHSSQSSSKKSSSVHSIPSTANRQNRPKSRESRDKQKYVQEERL
Sequence of UniProt P0AC13 (whole entry, looked up): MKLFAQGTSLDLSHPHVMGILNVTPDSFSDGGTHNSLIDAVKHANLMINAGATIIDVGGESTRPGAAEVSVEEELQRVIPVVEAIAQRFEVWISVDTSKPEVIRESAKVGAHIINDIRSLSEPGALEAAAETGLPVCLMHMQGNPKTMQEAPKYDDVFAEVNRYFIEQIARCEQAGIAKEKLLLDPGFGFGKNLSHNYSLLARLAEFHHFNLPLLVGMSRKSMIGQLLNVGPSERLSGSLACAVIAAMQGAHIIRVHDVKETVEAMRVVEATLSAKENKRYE
Sequence of UniProt Q9I4X0 (whole entry, looked up): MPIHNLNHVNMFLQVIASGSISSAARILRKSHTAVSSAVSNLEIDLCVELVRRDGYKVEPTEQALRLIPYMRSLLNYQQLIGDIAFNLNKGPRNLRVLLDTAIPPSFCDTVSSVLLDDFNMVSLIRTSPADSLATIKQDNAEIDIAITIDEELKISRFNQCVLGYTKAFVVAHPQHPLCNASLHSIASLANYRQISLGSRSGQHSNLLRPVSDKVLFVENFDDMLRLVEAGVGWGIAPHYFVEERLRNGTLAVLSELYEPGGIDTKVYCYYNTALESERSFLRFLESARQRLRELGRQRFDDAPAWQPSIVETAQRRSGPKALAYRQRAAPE

Compound | target | test | system | setting | scale | endpoint | result
c1coc(-c2n[nH]cc2-c2ccnc3ccccc23)c1 | Serine/threonine-protein kinase ATG1 (ATG1, Candida albicans, UniProt Q5A649) | kinase binding, MIB/MS competition | Candida albicans lysate | 1 µM | relative to: DMSO, negative = stronger binding | log2 fold change | -0.17
COC(=O)c1cccc(C(=O)c2c[nH]c3c2ccc2ccccc23)n1 | AHR (Homo sapiens, UniProt P35869) | reporter gene, agonist, XRE luciferase | HepG2 | – | relative to: ITE | Emax | 66 ± 4%
CCCCCCCC(=O)c1cc(OC)c(OC)c(OC)c1CC(=O)OCC | NR1H3 | reporter gene, Gal4 hybrid reporter | – | 10 µM | relative to: vehicle | activation | 0.59 fold
CCCCCCCCCCCCC/C=C/[C@@H](O)[C@H](CO)NC(=O)CCCCCCCCCCCCCCCCC | Protein SET (SET, Homo sapiens, UniProt Q01105, K222D) | lipid binding, GFP pull-down LC-MS/MS | A549 overexpressing GFP-tagged protein | unit not given | relative to: vector-transfected cells | bound endogenous lipid | 3.5
CN(C)c1ncc(F)c(-c2cnn3ncccc23)n1 | ABL1 (Homo sapiens, UniProt P00519, H396P) | KINOMEscan | – | 1 µM | relative to: control | remaining binding | 98%
Cc1cc2ccccc2c2ccc3ccccc3c12 | Aryl hydrocarbon receptor (Danio rerio, UniProt Q9YGV3) | reporter gene, agonist, luciferase reporter | ZF-4 | 123.5 µM | relative to: vehicle control | fold change | 4.33
COc1cc(C#CC(=O)CC(C)C)ccc1O | mvfR (Pseudomonas aeruginosa, UniProt Q9I4X0) | receptor binding | – | concentration not given, 1.5 h, together with: PQS at 1:1 ratio | relative to: control | binding | 84%
CC[C@@H]1[C@H](F)C(=O)N[C@@H]1COc1nccc2cc(C(N)=O)c(OC)cc12 | CDK7 (Homo sapiens, UniProt P50613) | ATP-site probe binding, ActivX profiling | THP-1 cell lysate | 0.04 mM, Lys1 site | – | inhibition | -0.9%
Nc1ncnc2c1ncn2[C@@H]1O[C@H](COP(=O)(O)CP(=O)(O)OP(=O)(O)O)[C@@H](O)[C@H]1O | P2X purinoceptor 1 (P2RX1, Homo sapiens, UniProt P51575, F188L) | calcium influx | – | 10 µM | relative to: ionomycin response | calcium influx | 100% and 98.7%
Cc1cc(NS(=O)(=O)c2ccc(N)cc2)no1 | folP (Bacteria, UniProt P0AC13) | CETSA HiBiT | Escherichia coli, cell lysate | concentration not given | relative to: DMSO | melting temperature shift | -0.38 °C
N#Cc1ccc(C[C@@H](NC(=O)c2cc3cc([N+](=O)[O-])ccc3[nH]2)C(=O)N2CCc3ccccc32)cc1 | FPR2 (Homo sapiens, UniProt P25090) | cell-based | – | concentration not given | – | activity | inactive
Nc1nc2c(ncn2[C@@H]2O[C@H](COP(=O)(O)O)[C@@H](O)[C@H]2O)c(=O)[nH]1 | GUK1 (Homo sapiens, UniProt Q16774) | enzyme activity, NADH-coupled | – | 250 µM | – | reaction rate | 37.9 s⁻¹ and 39.7 s⁻¹ and 42 s⁻¹
CN(C)C(=O)C(CCN1CCC(O)(c2ccc(Cl)cc2)CC1)(c1ccccc1)c1ccccc1 | Calcium-activated potassium channel subunit alpha-1, with LRRC26 γ1 subunit (KCNMA1, Homo sapiens, UniProt Q12791) | ion current, inside-out patch, mean of individual fits | BKα/γ1 channel | 1 µM, together with: nominally 0 Ca2+ | – | V1/2 | 7.4 ± 5 mV
CC1(C)S[C@@H]2[C@H](NC(=O)[C@H](N)c3ccccc3)C(=O)N2[C@H]1C(=O)O | T1, DNA aptamer | ITC | – | – | – | Kd | 12.7 µM
C#Cc1cccc(Oc2ccc(-c3nn([C@@H]4CCCN(C(=O)C=C)C4)c4ncnc(N)c34)cc2)c1 | Prostaglandin E synthase 2 (Homo sapiens, UniProt Q9H7Z7) | ABPP-SILAC | – | 1 µM, 1 h | relative to: DMSO | SILAC ratio | 1
C[C@H](CCCOc1ccc(C(=O)O)cc1)[C@H]1CC[C@H]2[C@@H]3CC=C4C[C@@H](O)CC[C@]4(C)[C@H]3CC[C@]12C | NR1H3 | reporter gene, GAL4-LBD transactivation | HepG2 | – | – | efficacy | 10.6 ± 1.5%
